Measured values of several laboratories.
Lines come from different studies, so protocols differ. “And” joins repeats or separate records; there may be more than shown. ± marks the error that the study gave.

| Compound | assay | test system | conditions | scale | measurement | result |
| --- | --- | --- | --- | --- | --- | --- |
| CC(C)[C@@H]1NC(=O)CNC(=O)[C@H](CC(N)=O)NC(=O)[C@H](CCCNC(=N)N)NC(=O)[C@H](Cc2ccc(O)cc2)NC(=O)[C@H](C(C)C)NC(=O)[C@@H](NC(=O)[C@@H](NC(=O)[C@H](CC(N)=O)NC(=O)[C@H](Cc2c[nH]c3ccccc23)NC(=O)[C@H](C)NC(=O)[C@H](Cc2ccccc2)NC(=O)CN)C(C)C)CSSC[C@@H](C(=O)N[C@@H](Cc2cnc[nH]2)C(=O)N[C@@H](CCCNC(=N)N)C(=O)N[C@@H](CCCNC(=N)N)C(=O)N[C@@H](C)C(=O)N[C@@H](CC(N)=O)C(N)=O)NC(=O)[C@H](C(C)C)NC(=O)[C@H](CCCNC(=N)N)NC1=O | – | ICR mice, blood | intraductal mammary, 5 mg/kg, day 5 | – | plateletcrit | 0.02 ± 0.01% |
| O=[N+]([O-])c1ccc2c(c1)S(=O)(=O)C=C2 | flow cytometry | male C57BL/6 mice, spleen | i.p., 10 mg/kg, 8 days | relative to: CD45+ cells | Gr-1+ CD11b+ cells | 0.88% |
| CCN(CCO)CCCC(C)Nc1ccnc2cc(Cl)ccc12 (stereo not shown) | – | newly diagnosed glioblastoma patients | oral, 400 mg/dose, grade 1, added: radiotherapy plus temozolomide | – | lymphocyte count decreased patients | 14% |
| C[C@@H]1NC(=O)[C@H](CCCCNC(=O)CO/N=C/C(=O)NCCCC[C@@H]2NC(=O)[C@@H](Cc3ccccc3)NC(=O)[C@H](CC(=O)O)NC(=O)CNC(=O)[C@H](CCCNC(=N)N)NC2=O)NC(=O)CNC(=O)[C@@H]2CCCN2C(=O)[C@H](CCCCNC(=O)CO/N=C/C(=O)NCCCC[C@@H]2NC(=O)[C@@H](Cc3ccccc3)NC(=O)[C@H](CC(=O)O)NC(=O)CNC(=O)[C@H](CCCNC(=N)N)NC2=O)NC(=O)[C@H](CCCCNC(=O)CCNC(=O)CCNC(=O)CCNC(=O)[C@H](CCCCN)NC(=O)[C@H](Cc2ccccc2)NC(=O)CNC(=O)CN2CCCNCCNCCCNCC2)NC(=O)[C@H](CCCCNC(=O)CO/N=C/C(=O)NCCCC[C@@H]2NC(=O)[C@@H](Cc3ccccc3)NC(=O)[C@H](CC(=O)O)NC(=O)CNC(=O)[C@H](CCCNC(=N)N)NC2=O)NC(=O)CNC(=O)[C@@H]2CCCN2C(=O)[C@H](CCCCNC(=O)CO/N=C/C(=O)NCCCC[C@@H]2NC(=O)[C@@H](Cc3ccccc3)NC(=O)[C@H](CC(=O)O)NC(=O)CNC(=O)[C@H](CCCNC(=N)N)NC2=O)NC1=O [copper-64 labelled] | – | normal mice, heart | intravenous, 0.74 MBq, 3 h post-injection | – | tissue uptake | 1.9 ± 0.14 %ID/g |
| CCC[C@@](N)(CO)CCc1ccc(OCCCCCC(C)C)cc1 | – | hound dogs, male | oral, 10 mg/kg, capsule, fed state, median | – | half-life | 17.4 h |
| C[C@@H]1COCCN1c1cc(-c2ccnn2C)c2ccnc(-c3ccn[nH]3)c2n1 | – | female BALB/c mice | dose not given, 48 h, added: total body irradiation 6 Gy | relative to: irradiation alone | white blood cell count | no effect |
| COc1ccc(-c2c(-c3ccc(C#N)c(F)c3)nc(N3CCC(N)CC3)n(C)c2=O)cc1F | measured: Fatigue | human patients | oral, 60 mg, dose expansion | – | serious adverse event incidence | 5% |
| Cn1cncc1-c1c(F)cncc1NC(=O)c1c(N)nn2cc(F)cnc12 | – | human patients | oral, 180 mg once daily, 21 days | – | dose-limiting toxicity upper GI haemorrhage | 0% |
| CC(C)Nc1ccnc(Nc2cccc(-c3cccnc3)c2)n1 | measured: sodium | mouse, blood | intraperitoneal, 10 mg/kg | – | blood chemistry | 159 mmol/L |
| Cc1cc(C)c(CNC(=O)c2cc(Cl)c3c(c2C)O[C@@](C)([C@H]2CC[C@H](N(C)C)CC2)O3)c(=O)[nH]1 | – | human, relapsed/refractory NHL | concentration not given, treatment-related TEAEs, grade 5 | – | Nasopharyngitis incidence | 0% |
| O=C(Nc1ccccc1)C1CCN(C(=O)Oc2cccnc2)CC1 | adverse event reporting | healthy women | oral, 60 mg, 7 days | – | subjects with disturbance in attention | 14.3% |
| COc1ncccc1-c1cnn2ccc(N3CCN(C(=O)OC(C)C)CC3)nc12 | – | rat, brain | oral, 30 mg/kg, 1.5 h, added: saline | – | concentration | 5.3 µM |
| [O-][S+]1CCc2nc(N3CCC(c4ncc(Cl)cn4)CC3)nc(NC3(CO)CCC3)c21 (stereo not shown) | measured: upper abdominal pain | healthy male humans | 48 mg single dose | – | adverse event incidence | 0% |
| C[C@]1(O)C[C@@](N)(c2ccc(-c3nc4n(c3-c3ccccc3)COc3ccncc3-4)cc2)C1 | – | human, advanced or metastatic solid tumours | 24 mg intermittent, phase I dose escalation | – | patients with TEAE | 75% |
| CC(=O)c1c(C)c2cnc(Nc3ccc(C4CCN(CCS(C)(=O)=O)CC4)cn3)nc2n(C2CCCC2)c1=O | – | HR+/HER2- advanced breast cancer patients | oral, 25 mg | – | patients with TEAE grade ≥3 | 33.3% |
| Cc1ccc(F)c2cc(C(=O)N[C@@H]3CCC[C@H](N4CC[C@H](N(C)S(C)(=O)=O)C4)C3)[nH]c12 | – | CD1 mouse, plasma | oral, 30 mg/kg, 4 h | – | plasma concentration | 0.384 µg/mL |
| CCOC(=O)C1=C[C@@H](OC(CC)CC)[C@H](NC(C)=O)[C@@H](N)C1 | population pharmacokinetic model | Sprague-Dawley rats, male, plasma and urine | oral, 30 mg/kg, alone, bootstrap median | – | Vd | 104 mL |
| O=C(C1CCOCC1)N1CC(=O)N2CCc3ccccc3[C@@H]2C1 | – | NMRI mouse, female, S. mansoni-infected, plasma | 200 mg/kg | – | AUC of (R)-enantiomer | 151 µM·h |
| CC(C)(C)c1cc(-n2nc3ccccc3n2)c(O)c(C(C)(C)C)c1 | exposure assessment | human, age 21-60 years | cream | – | mean daily dermal uptake | 1.82 ng/kg body weight/day |

| Compound | assay | test system | conditions | scale | measurement | result |
| --- | --- | --- | --- | --- | --- | --- |
| O=c1ccc2ncc(=O)n3c2n1C[C@H]3CN1CCC(NCc2cc3c(cn2)OCCC3)CC1 | – | healthy human volunteers | oral, 1500 mg, rifampicin cohort, added: rifampicin 600 mg | – | incidence of burning sensation | 0% |
| C=CC(=O)N1CC[C@H](n2nc(C#Cc3cc(OC)cc(OC)c3)c3c(N)ncnc32)C1 | – | patients with advanced solid tumours | oral, dose not given, Malaise, any grade, QD, added: ferric citrate hydrate | – | adverse drug reaction incidence | 0% |
| O=C1Nc2cc3[nH]nc(-c4ccncc4)c3cc2CN1Cc1ccccc1 | CTCAE v4.03 | advanced solid tumour patients | intravenous, 4.8 mg/kg, schedules 1/2 | – | patients with headache | 25% |
| CO[C@H]1C[C@@H]2CC[C@@H](C)[C@@](O)(O2)C(=O)C(=O)N2CCCC[C@H]2C(=O)O[C@H]([C@H](C)C[C@@H]2CC[C@@H](OC(=O)NCCOCCOCCOCCOCCOCCOCCOCCOCCC(=O)N3CCc4cc(Cn5nc(-c6ccc7oc(N)nc7c6)c6c(N)ncnc65)ccc4C3)[C@H](OC)C2)C[C@@H](O)[C@H](C)/C=C(\C)[C@@H](O)[C@@H](OC)C(=O)[C@H](C)C[C@H](C)/C=C/C=C/C=C/1C | phase 1 dose escalation, measured: gastric haemorrhage | advanced solid tumour patients | intravenous, 8 mg weekly, any grade | – | dose-reducing adverse events | 0% |
| CCN1CCN(Cc2ccc(Nc3ncc(F)c(-c4cc(F)c5nc6n(c5c4)[C@H](C)CCC6)n3)nc2)CC1 | – | advanced solid tumour patients | Phase Ia monotherapy | – | Hypertriglyceridemia incidence, any grade | 70.8% |
| O=S(=O)(Nc1ccccc1)c1ccc(NC(=S)Nc2ccccc2)cc1 | measured: LY% | male mouse, blood | oral, 80 mg/kg daily, 14 days | – | blood cell fraction | 74.6% |
| C=CC(=O)Nc1cc(Nc2nccc(Nc3cc(Cl)c(F)cc3C(C)(C)O)n2)c(OC)cc1N1CC[C@@H](N(C)C)C1 | treatment-emergent adverse events | human | oral, 50 mg, phase I clinical trial | – | incidence of weight decreased | 0% |
| CN1CC[C@@H](c2c(O)cc(O)c3c(=O)cc(-c4ccc(C(F)(F)F)cc4Cl)oc23)[C@@H]1CO | measured: Thrombocytopenia | relapsed B-cell malignancies or AML | oral, 100 mg, grade 3-4, continuous dosing | – | patients with adverse event | 0% |
| COc1ccc2nc3cc(Cl)ccc3c(Nc3cc(CN4CCCC4)c(O)c(CN4CCCC4)c3)c2n1 | – | mouse, blood | intraperitoneal, 14 mg/kg | – | red cell distribution width (CV) | 13.4% |
| S=c1oc(-c2ccccc2)nn1CN1CCN(Cc2ccccc2)CC1 | – | Wistar rat female | oral, 500 mg/kg, acute toxicity OECD 423 | – | serum creatinine | 0.62 ± 0.07 mg/dL |
| COc1cc2c(Oc3ccc4[nH]c(C)cc4c3F)ccnc2cc1OCC1(N)CC1 | – | paediatric recurrent refractory sarcoma | 12 mg | – | grade 1 or 2 Anorexia | 18.2% |
| CC(=O)N[C@H]1CC[C@H](NC(=O)CN2CCN(c3nncc(-c4ccc(C)cc4)n3)CC2)CC1 | – | female monkeys | – | – | NOAEL | 100 mg/kg/day |
| COc1cc(C(=O)NC2CCN(C)CC2)c(F)cc1Nc1ncc(C(F)(F)F)c(Oc2cccc3c2C(=O)N(C)C3)n1 | – | human patients, urine | oral, 10 mg single dose, geometric mean | relative to: dose | fraction excreted in urine (0-24 h) | 2.04% |
| C[C@@H]1OC(=O)NN=C1c1ccc(-c2ccc(F)cc2)c(C(F)(F)F)c1 | phase I trial, measured: back pain all grades | human patients | 10 mg loading then 0.5 mg daily | – | patients with adverse event | 100% |
| CCCCCOc1ccc(-c2ccc(-c3ccc(C(=O)N[C@H]4C[C@@H](O)[C@@H](OCC[N+](C)(C)C)NC(=O)[C@@H]5[C@@H](O)[C@@H](C)CN5C(=O)[C@H]([C@@H](C)O)NC(=O)[C@H]([C@H](O)[C@@H](O)c5ccc(O)cc5)NC(=O)[C@@H]5C[C@@H](O)CN5C(=O)[C@H]([C@@H](C)O)NC4=O)cc3)cc2)cc1 | – | adult ICU patients, mITT, serum | dose not given, day 30 | – | alanine aminotransferase | 15.1 U/L |
| C[C@]1(CO)Cc2ncn(-c3ccc(C#N)c(Cl)c3)c2C(=O)O1 | – | human, Chinese | 60 mg single dose | – | subjects with drug-related acne | 0% |
| CC[C@H](C)[C@H](NC(=O)[C@H](Cc1ccccc1)NC(=O)[C@H](CCC(=O)O)NC(=O)[C@H](CCCNC(=N)N)NC(=O)[C@H](C)NC(=O)[C@H](C)NC(=O)[C@H](CCC(N)=O)NC(=O)[C@H](CCC(=O)O)NC(=O)[C@H](CCC(=O)O)NC(=O)[C@H](CC(C)C)NC(=O)[C@H](Cc1ccc(O)cc1)NC(=O)[C@H](CO)NC(=O)[C@H](CO)NC(=O)[C@@H](NC(=O)[C@H](CC(=O)O)NC(=O)[C@H](CO)NC(=O)[C@@H](NC(=O)[C@H](Cc1ccccc1)NC(=O)[C@@H](NC(=O)CNC(=O)[C@H](CCC(=O)O)NC(=O)[C@H](C)NC(=O)CCc1cnc[nH]1)[C@@H](C)O)[C@@H](C)O)C(C)C)C(=O)N[C@@H](C)C(=O)N[C@@H](Cc1c[nH]c2ccccc12)C(=O)N[C@@H](CC(C)C)C(=O)N[C@H](C(=O)N[C@@H](CCCNC(=N)N)C(=O)NCC(=O)N[C@@H](CCCNC(=N)N)C(=O)N[C@@H](CCCCNC(=O)COCCOCCNC(=O)COCCOCCNC(=O)CC[C@H](NC(=O)CCCCCCCCCCCCCCCCC(=O)O)C(=O)O)C(=O)NCC(=O)NCC(=O)N[C@@H](CO)C(=O)N[C@@H](CCCCNC(=O)[C@H](CCCCNC(=O)[C@H](CCCCNc1c(NCCCCCN(O)C(=O)CCC(=O)NCCCCCN(O)C(=O)CCC(=O)NCCCCCN(O)C(C)=O)c(=O)c1=O)Nc1c(NCCCCCN(O)C(=O)CCC(=O)NCCCCCN(O)C(=O)CCC(=O)NCCCCCN(O)C(C)=O)c(=O)c1=O)NC(=O)[C@H](CCCCNc1c(NCCCCCN(O)C(=O)CCC(=O)NCCCCCN(O)C(=O)CCC(=O)NCCCCCN(O)C(C)=O)c(=O)c1=O)Nc1c(NCCCCCN(O)C(=O)CCC(=O)NCCCCCN(O)C(=O)CCC(=O)NCCCCCN(O)C(C)=O)c(=O)c1=O)C(=O)O)C(C)C [zirconium-89 labelled] | ex vivo gamma counting | Sprague-Dawley rat, male, bone marrow | intravenous, 1 nmol, 24 h | – | tissue uptake | 2.06 %ID/g and 2.52 %ID/g and 1.91 %ID/g and 2.03 %ID/g and 2.76 %ID/g |
| C=CCn1c(=O)c2cnc(Nc3ccc(N4CCN(C)CC4)cc3)nc2n1-c1ccc2c(n1)[C@@](O)(CC)CC2 | – | mouse, CDX tumour models, body weight | 80 mg/kg once daily | – | tolerability | not toxic |

For quick reference, copied from above:
| Compound | assay | test system | conditions | scale | measurement | result |
| --- | --- | --- | --- | --- | --- | --- |
| CC(=O)c1c(C)c2cnc(Nc3ccc(C4CCN(CCS(C)(=O)=O)CC4)cn3)nc2n(C2CCCC2)c1=O | – | HR+/HER2- advanced breast cancer patients | oral, 25 mg | – | patients with TEAE grade ≥3 | 33.3% |
| CC(C)(C)c1cc(-n2nc3ccccc3n2)c(O)c(C(C)(C)C)c1 | exposure assessment | human, age 21-60 years | cream | – | mean daily dermal uptake | 1.82 ng/kg body weight/day |
| O=S(=O)(Nc1ccccc1)c1ccc(NC(=S)Nc2ccccc2)cc1 | measured: LY% | male mouse, blood | oral, 80 mg/kg daily, 14 days | – | blood cell fraction | 74.6% |
| C[C@@H]1COCCN1c1cc(-c2ccnn2C)c2ccnc(-c3ccn[nH]3)c2n1 | – | female BALB/c mice | dose not given, 48 h, added: total body irradiation 6 Gy | relative to: irradiation alone | white blood cell count | no effect |
